{"data": "Published values of several laboratories", "organism": "Plasmodium falciparum", "note": "Protocols differ between the studies behind these lines. ± gives the spread as reported."}
{"Compound": "C[OH+][Cu-2]12[O]C(c3cn(-c4ccccc4)nc3-c3ccccc3)=N[N+]1=C(C)c1c(cc(C)oc1=O)[O]2 (stereo not drawn)", "test system": "3D7", "setting": "100 µg/mL, 72 h", "endpoint": "parasitaemia suppression", "result": "100%"}
{"Compound": "CC[C@H](C)[C@H](NC(=O)[C@@H](NC(=O)[C@H](Cc1ccc(O)cc1)NC(=O)[C@H](CCCCN)NC(=O)[C@H](CCCCN)NC(=O)[C@H](CC(C)C)NC(=O)[C@H](CC(=O)O)NC(=O)[C@H](Cc1ccc(O)cc1)NC(=O)[C@H](CCC(N)=O)NC(=O)[C@H](CCCCN)NC(=O)[C@@H](NC(=O)[C@H](Cc1ccccc1)NC(=O)[C@H](CCCCN)NC(=O)[C@H](CCCCN)NC(=O)[C@H](Cc1c[nH]c2ccccc12)NC(=O)[C@H](CCCCN)NC(=O)[C@H](CCSC)NC(=O)[C@H](CCCNC(=N)N)NC(=O)[C@H](CCCNC(=N)N)NC(=O)[C@H](CC(N)=O)NC(=O)[C@H](CCC(N)=O)NC(=O)[C@H](Cc1ccccc1)NC(=O)[C@H](Cc1c[nH]c2ccccc12)NC(=O)[C@@H](NC(=O)[C@H](CCCCN)NC(=O)[C@@H](NC(=O)[C@H](CCC(N)=O)NC(=O)[C@@H](N)CCCNC(=N)N)[C@@H](C)CC)[C@@H](C)CC)[C@@H](C)CC)[C@@H](C)CC)C(=O)O", "assay": "mitochondrial membrane potential", "setting": "90 µM, 3 h", "endpoint": "JC-1 red/green ratio", "result": "~0.4"}
{"Compound": "Cc1ccc(NC(C)(C)C(=O)Nc2ccc(F)c(Cl)c2)cc1S(=O)(=O)N1CC2CCC(C1)O2", "assay": "parasite growth", "test system": "3D7", "setting": "blood stage", "endpoint": "EC50", "result": "35 nM"}
{"Compound": "CC[C@H](C)[C@@H]1NC(=O)[C@H](CCCCN)NC(=O)[C@H](CCCCN)NC(=O)[C@H](Cc2ccc(O)cc2)NC(=O)[C@H](CC(C)C)NC(=O)[C@@H]2CCCN2C(=O)[C@H](C)NC(=O)CNC(=O)CNC(=O)[C@H](CO)NC(=O)CNC(=O)CNC(=O)[C@H](CO)NC(=O)[C@H](CCC(=O)O)NC(=O)[C@H](CC(C)C)NC(=O)[C@H](CC(C)C)NC(=O)[C@H](CCCCN)NC(=O)[C@H](CCCCN)NC(=O)[C@H]([C@@H](C)CC)NC(=O)[C@H]([C@@H](C)CC)NC(=O)[C@H](CCCCN)NC(=O)[C@H](CCCCN)NC(=O)[C@H](Cc2ccc(O)cc2)NC(=O)[C@H](CC(C)C)NC(=O)[C@@H]2CCCN2C(=O)[C@H](C)NC(=O)CNC(=O)[C@@H]2CSSC[C@H](NC(=O)[C@H](CC(C)C)NC(=O)[C@H](CCCCN)NC(=O)[C@H](CCCCN)NC(=O)[C@H]([C@@H](C)CC)NC1=O)C(=O)N[C@@H](CCCCN)C(=O)N[C@@H](CC(N)=O)C(=O)NCC(=O)N2", "test system": "3D7", "setting": "5 mg/mL Albumax II", "how to read": "reference: RBC HC10 over P. falciparum IC50", "endpoint": "selectivity index", "result": "1.7 ± 0.3"}
{"Compound": "CNC(=O)[C@@H]1Cc2c([nH]c3ccccc23)[C@@H](c2ccc(Cl)cc2Cl)N1", "test system": "schizont stage", "setting": "1 µM, 4 h", "how to read": "reference: untreated", "endpoint": "IPP level reduction", "result": "> 90%"}
{"Compound": "C#CCOCCCC1OC2OC3(C)CCC4C(C)CCC(C1C)C24O3 (stereo not drawn)", "test system": "W2", "setting": "72 h", "how to read": "reference: HepG2 over blood-stage parasites", "endpoint": "selectivity index", "result": "> 2.51"}
{"Compound": "C[OH+][Cu-2]12[O]C(c3cn(-c4ccccc4)nc3-c3ccc(F)cc3)=N[N+]1=C(C)c1c(cc(C)oc1=O)[O]2 (stereo not drawn)", "test system": "3D7", "setting": "12.5 µg/mL, 72 h", "endpoint": "parasitaemia", "result": "2%"}
{"Compound": "COc1cc(O)c(-c2cc(-c3cc(-c4c(O)cc5c(c4OC)[C@H](C)N[C@H](C)C5)c4cc(C)cc(OC)c4c3O)c(O)c3c(OC)cc(C)cc23)c2c1[C@H](C)N[C@H](C)C2", "assay": "gametocyte viability, luciferase reporter", "test system": "NF54-Pfs16-GFP-Luc, early stage II/III", "setting": "5 µM, 48 h", "endpoint": "inhibition", "result": "> 70%"}
{"Compound": "CCOC(=O)c1cn(-c2nc(C(F)(F)F)n[nH]2)nn1", "assay": "parasite growth", "test system": "NF54", "setting": "1 µM, gametocyte", "endpoint": "inhibition", "result": "> 75%"}
{"Compound": "CCN(CC)c1ccc2nc3c4ccccc4/c(=N/c4ccncc4)cc-3oc2c1", "test system": "NF54", "setting": "62.5 ng/mL, 6 h, rings, trophozoites, schizonts", "how to read": "reference: untreated", "endpoint": "remaining growth", "result": "< 3%"}
{"Compound": "Cc1ccc(CNC(=O)[C@H](CCc2ccccc2)NC(=O)[C@@H](N)CCc2ccccc2)cc1", "test system": "D10", "setting": "72 h", "how to read": "reference: HFF EC50 over P. falciparum EC50", "endpoint": "selectivity ratio", "result": "> 6"}
{"Compound": "CCCCN1C(=O)c2ccc3c4c(ccc(c24)C1=O)C(=O)N(CCNc1c2ccc(Cl)cc2nc2ccc(OC)cc12)C3=O", "assay": "parasite growth, SYBR Green", "test system": "3D7", "setting": "50 nM, 12 h, blood stage", "endpoint": "inhibition", "result": "~80%"}
